Measured values collected from several papers.
Each numbered part is a random draw from the data of one study; scales do not carry over between parts. Changes are numbered by the printed parent chain.

Study 1 — technique: protein-binding microarray; form: double-stranded DNA, one strand shown; matrix: in vitro; tested at: 2540 nM top; notes: 60-bp whole probe; added: salmon DNA 0.4 mg/ml; reference: random background probes; direction: higher = stronger binding; shared flanks, not repeated: GCCTAGCAC … GTCTTGATTCGCTTGACGCTGCTG
Target: Interferon regulatory factor 3, full length, phosphomimetic (IRF3, Homo sapiens, UniProt Q14653, residues 1-427, S386D/S396D/S398D/S402D/T404D/S405D)
Target sequence (chain): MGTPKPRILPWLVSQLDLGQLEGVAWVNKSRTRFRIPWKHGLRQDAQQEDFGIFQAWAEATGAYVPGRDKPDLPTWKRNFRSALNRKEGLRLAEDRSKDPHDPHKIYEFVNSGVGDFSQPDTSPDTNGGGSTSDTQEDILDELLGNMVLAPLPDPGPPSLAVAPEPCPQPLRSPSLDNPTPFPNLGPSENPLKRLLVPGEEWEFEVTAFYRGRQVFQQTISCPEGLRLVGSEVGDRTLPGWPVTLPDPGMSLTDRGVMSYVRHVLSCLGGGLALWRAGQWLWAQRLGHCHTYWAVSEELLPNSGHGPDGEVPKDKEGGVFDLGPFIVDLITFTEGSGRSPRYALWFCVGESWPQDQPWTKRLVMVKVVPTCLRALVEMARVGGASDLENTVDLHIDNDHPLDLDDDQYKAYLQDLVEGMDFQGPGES
| Sequence | fitted relative affinity [z-score] |
| --- | --- |
| TCATTTTTACCTGTGGTACTGTGCTAG | 1.37 |
| TTAGGACTGCTACTGCTTGAGTGCTAG | -0.57 |
| TCATTTTCCTTATTGCTTACTGTGCTA | 6.71 |
| AACAGGAGCAGATGGGAAGTGTGCTAG | -0.272 |
| TTCTCTCTGGCCCTCCTGAGGTGCTAG | 0.647 |
| TCAGTAAGCAAAAATGAACTGTGCTAG | -0.436 |
| TTAGGACTGGGGACTGGGATAGTGCTA | -0.971 |
| TTAGGTCTCGGTTTGGGTTAGTGCTAG | 0.964 |
| TCACTTTTTGCACTCTCACTGTGCTAG | 1.21 |
| GACGGTTTCGACTTTCGGGAAGTGCTA | 4.13 |
| GTCGGTTTCGGTTTCGGGACGTGCTAG | 11.8 |
| GACGAACTGAGTTTCGACACGTGCTAG | 1.22 |
| TTTGATTTCAGACTGGATTAGTGCTAG | 0.754 |
| TCATTTTTGCTTTCTTTACTGTGCTAG | 2.88 |
| CACGAACTGAGTATCGAGACGTGCTAG | 0.125 |
| TGCTTTCTCCCAAGTCTTGTTGTGCTA | 0.734 |
| TTTACTTTCTGAATGCCCTCGTGCTAG | 5 |
| TCATCATTGCCTATTTTTCAGTGCTAG | 0.539 |
| TACGATTTCAGTATCGAGACGTGCTAG | 1.98 |
| TCACTGTTCTTTTCAGTACTGTGCTAG | 1.47 |
| GACGGTCGCGGTATCGGGACGTGCTAG | 0.64 |
| GACCGTCTCGGTCTCGGGACGTGCTAG | 1.9 |
| TTAGGTCTTCTTCTCCTTTAGTGCTAG | 0.864 |

Study 2 — technique: DHFR PCA, deep sequencing; matrix: yeast; added: (+)-ABA 200 µM; reference: wild-type fitted maximum; direction: higher = stronger binding
Target: ABI1, truncated, D143A, DHFR fusion (Arabidopsis thaliana)
Notes: methotrexate growth selection, single substitutions
Parent: PYL1, truncated, DHFR fusion (Arabidopsis thaliana); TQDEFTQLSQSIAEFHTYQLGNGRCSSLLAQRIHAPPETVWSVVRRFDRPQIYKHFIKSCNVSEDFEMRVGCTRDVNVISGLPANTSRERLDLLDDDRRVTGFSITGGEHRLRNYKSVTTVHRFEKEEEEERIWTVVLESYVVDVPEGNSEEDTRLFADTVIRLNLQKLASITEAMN; partner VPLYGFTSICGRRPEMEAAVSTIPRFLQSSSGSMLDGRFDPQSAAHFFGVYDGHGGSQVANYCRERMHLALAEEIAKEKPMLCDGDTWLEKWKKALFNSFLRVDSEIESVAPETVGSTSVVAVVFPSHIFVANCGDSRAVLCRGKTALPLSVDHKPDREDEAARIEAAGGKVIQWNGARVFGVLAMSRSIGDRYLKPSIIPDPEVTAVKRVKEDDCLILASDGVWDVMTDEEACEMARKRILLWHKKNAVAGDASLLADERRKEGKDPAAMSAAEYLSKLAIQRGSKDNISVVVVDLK
| Change | relative binding score [%] |
| --- | --- |
| G102D | 0.554 |
| L112V | 38.5 |
| P37C | 85.1 |
| D3W | 96.4 |
| L164E | 74.2 |
| I105Y | -12.3 |
| T39F | 90.8 |
| R24T | 96.3 |
| G21A | 101 |
| C72F | 94 |
| E125C | 105 |
| K116Q | 109 |
| I52Y | 101 |
| G71N | 83.3 |
| T120A | 15.2 |
| N85D | 98.1 |
| V70M | 82.6 |
| F66C | 100 |

Study 3 — technique: RNA Bind-n-Seq; form: RNA; matrix: in vitro; tested at: 365 nM; reference: no-protein control; direction: higher = stronger binding
Target: RNA binding protein fox-1 homolog 2, RRM domain, GST-SBP tag (RBFOX2, Homo sapiens, UniProt O43251-10, residues 100-194)
Notes: natural RNA segment, single round, ends assumed
Shared flanks, not repeated: GGGAGUUCUACAGUCCGACGAUC … UGGAAUUCUCGGGUGCCAA
Target sequence (chain): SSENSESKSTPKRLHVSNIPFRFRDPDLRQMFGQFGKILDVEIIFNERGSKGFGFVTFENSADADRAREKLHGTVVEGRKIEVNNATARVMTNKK
| Sequence | RBNS enrichment (R) |
| --- | --- |
| CCCAUUCCGGUACCUAAGUAACAUCUAUGCAAAGAAACACAUUAAAAGCAGCAAUAAAACUGCUCCUACCCACAGCCACGGAUCUUCCAAACCUAGCCCCGCUCUCAGGC | 0.52 |
| GGAUUGUUUCCGUUUUUGUUUGUUUUUUCUAAUAUUUGGUACUUCCCAGAAUGGUGUAAAUACUUCUUUUCAAUGUUGUGACCAAGUAUUGUCACUCAGCCAACAACUUU | 0.424 |
| UGGGAAAGAGAGCACUGGCUCACUGUGCAGUUUUCAUGUUUCCUCAGCAAGCCAUCAAGCCUCACAUCUCUACCAUCAGAGAUAGAGCUUGGCCAUUUAUCUAAGGAAGA | 0.227 |
| GGUUUUUUAUUACUGUUCCAUUUUGCAACAUCCUGCAACACCAUCCUGGGAGACAAGAGCAUUACCCAGCUUGGCUUUCACGGGGGAGGGUUGUAUUCAGUAAAAAAGAA | 0.911 |
| CACGUGGCUCUUGGACCUUGAUUUAGAAAGGCUCAUACUCCCAGGAAAACACCCAUUUUGAUACAAUGUAAACGUUCGUGUUCACCCUUGGAUACAUGUUGAAAGAGCUC | 0.493 |
| CUGGACUUUGGUAUCUGAGGCAGAGGUGAACUGCAGGCCAGUGGCUCCUCUUGGGGAAAUUGUGUAUGUAUUCACUUAGGUCAAAGCCUGACCUUCGAGCAACCUCUCCU | 0.379 |
| UUUUCUCUUGCACUUCACUUGUAUGUUUUACUGUGGUGGAAAAAAUACUUCAACUGAUUAUCACACUUGAAAUGCUAAUUAUCAGUGGAAUUUGUCUCCUAUUCUUAAGU | 0.581 |
| AGUUGCUUUUUGGGGUAAUUUGAAUUACUUUUUUAAUGACUGGGGUUCCAUUUGACUGUUUGCAUUGAGAUUGCAAUGUGCGCAAUUUUUUUUGUAGUUGUGGCAUCUUG | 0.878 |
| UGGGACACCCCAGGCAUGCUCUCAAACUAGUCAUGGGGCCUUCUGAGGACAGUUCCAUCCUACCUUUGUCCUUCCCUGGUACAGCCUGUGACCCUGGCACACUGCACAUG | 1.27 |
| UUGGCUCAGCUGUAUGAAGGUUGGACAGCCUGGGUGUGAAUGGCAAGACAGUAGAUGAGUCUGGUUAAGCGAGGUCAGACAUCCACCAGAAUCAACUCAGCCUCAGGCAU | 0.634 |
| ACCUGGCACAGUUUUCUCUGAACUCUGGAAGACUUCUGAUGGGUGGUGUUCAGCUUCGACAAAGAUGACGUUUUCUGAGAACUUAGUCCGUCCGUACCCAGCUAACCUCU | 0.247 |
| GUUUUGCAAAGAUUCAGAGAACUAAUUUUUCACUGGAUAAGACCUGAGUAACCCAGACCCCCCACCGUGGUUCUUUUCACAGCCCUCGACUUUGCACUUAAAAAGGGAUA | 0.498 |

Study 4 — technique: protein-binding microarray; form: hairpin DNA; matrix: in vitro; tested at: not given; reference: not given; direction: higher = stronger binding
Target: Microphthalmia-associated transcription factor, full length (MITF, Homo sapiens, UniProt O75030-10, residues 1-413)
Notes: whole hairpin DNA, median over replicate spots
| Sequence | median fluorescence [a.u.] |
| --- | --- |
| GAGGCCTCGCACGTGCTGCCTCCTGGCAGCACGTGCGAGGCCTCACACTC (5mC at 36) | 18200 |
| CACTTAGCACCGGATTTTGGTCCTCCAAAATCCGGTGCTAAGTGACACTC | 5450 |
| GAGGCCTAGCCCGTGCTGCCTCCTGGCAGCACGGGCTAGGCCTCACACTC | 7300 |
| CACTTAGCTCGTGATTTTGGTCCTCCAAAATCACGAGCTAAGTGACACTC | 15900 |
| CACTTAGCGCGTGATTTTGGTCCTCCAAAATCACGCGCTAAGTGACACTC (5mC at 8 36) | 15000 |
| GAGGCCTAGAACGTGCTGCCTCCTGGCAGCACGTTCTAGGCCTCACACTC | 6690 |
| GAGGCCTAGCACGTCCTGCCTCCTGGCAGGACGTGCTAGGCCTCACACTC (5mC at 15) | 5620 |
| CACTTAGCACGCGATTTTGGTCCTCCAAAATCGCGTGCTAAGTGACACTC (5mC at 12) | 12100 |
| GAGGCCTCGCACGTGCTGCCTCCTGGCAGCACGTGCGAGGCCTCACACTC | 19400 |
| GAGGCCTAGCACGAGCTGCCTCCTGGCAGCTCGTGCTAGGCCTCACACTC | 10100 |
| CACTTAGAACGTGATTTTGGTCCTCCAAAATCACGTTCTAAGTGACACTC | 8550 |
| GAGGCCTAGCACGTACTGCCTCCTGGCAGTACGTGCTAGGCCTCACACTC | 5680 |
| CACTTAGCACGTCATTTTGGTCCTCCAAAATGACGTGCTAAGTGACACTC | 4990 |
| GAGGCCTATCACGTGCTGCCTCCTGGCAGCACGTGATAGGCCTCACACTC | 25800 |
| GAGGCCTAGCGCGTGCTGCCTCCTGGCAGCACGCGCTAGGCCTCACACTC (5mC at 10) | 10000 |

Study 5 — technique: protein binding microarray; form: double-stranded DNA, one strand shown; matrix: in vitro; tested at: not given; reference: not given; direction: higher = stronger binding
Target: Histone acetyltransferase KAT6A, winged helix 1, GST fusion (KAT6A, Homo sapiens, UniProt Q92794, residues 1-85)
Notes: 8-mer, flanks averaged, mean of 2 arrays, mostly near background
Construct (chain): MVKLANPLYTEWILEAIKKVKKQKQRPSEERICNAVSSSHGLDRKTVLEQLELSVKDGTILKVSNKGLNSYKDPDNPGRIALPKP
| Sequence | E-score |
| --- | --- |
| CTAGGATA | 0.0351 |
| CTGAGAGC | 0.0187 |
| AGTGAGTG | -0.239 |
| AAATTTGC | -0.16 |
| CCTCCATC | -0.11 |
| GTATATGA | -0.0665 |
| CTTGAGGC | 0.0325 |
| ACTGTCGG | 0.218 |
| AACAAGCT | -0.21 |
| CCACGGAG | 0.129 |
| CTAGACAA | -0.206 |
| CCTTTCTC | -0.205 |
| TAATTACA | -0.12 |
| AGATCTTA | -0.118 |
| TCGAGTAA | -0.216 |
| TCGGCTAA | 0.253 |
| AATCACTC | -0.269 |
| AGTTGCGC | 0.261 |
| ATGACGCA | 0.0528 |
| AGACAGCC | 0.033 |
| CATTAATG | -0.00416 |
| CGCTAGTC | 0.119 |
| CTGGGAAG | -0.116 |

For quick reference, copied from above (study 5):
| Sequence | E-score |
| --- | --- |
| GTATATGA | -0.0665 |
| CTTGAGGC | 0.0325 |
| ACTGTCGG | 0.218 |
| AACAAGCT | -0.21 |
| CCACGGAG | 0.129 |
| CTAGACAA | -0.206 |
| CCTTTCTC | -0.205 |
| TAATTACA | -0.12 |
| AGATCTTA | -0.118 |
| TCGAGTAA | -0.216 |
| TCGGCTAA | 0.253 |
| AATCACTC | -0.269 |
| AGTTGCGC | 0.261 |
| ATGACGCA | 0.0528 |
